# Results from different studies.
# A part holds a random share of what one study measured. Changes are numbered by the printed parent chain.

# Sample 1 — technique: protein-binding microarray; molecule type: double-stranded DNA, one strand shown; medium: in vitro; tested at: 2200 nM top; setting: 60-bp whole probe; together with: salmon DNA 0.4 mg/ml; relative to: random background probes; reading: higher = stronger binding; all sequences stand within: GCCTAGCAC … GTCTTGATTCGCTTGACGCTGCTG
# Target: Interferon regulatory factor 7, full length, phosphomimetic (IRF7, Homo sapiens, UniProt Q92985, residues 1-503, S471D/S472D/S475D/S476D/S477D/S483D/S484D/S487D)
# Residues (chain): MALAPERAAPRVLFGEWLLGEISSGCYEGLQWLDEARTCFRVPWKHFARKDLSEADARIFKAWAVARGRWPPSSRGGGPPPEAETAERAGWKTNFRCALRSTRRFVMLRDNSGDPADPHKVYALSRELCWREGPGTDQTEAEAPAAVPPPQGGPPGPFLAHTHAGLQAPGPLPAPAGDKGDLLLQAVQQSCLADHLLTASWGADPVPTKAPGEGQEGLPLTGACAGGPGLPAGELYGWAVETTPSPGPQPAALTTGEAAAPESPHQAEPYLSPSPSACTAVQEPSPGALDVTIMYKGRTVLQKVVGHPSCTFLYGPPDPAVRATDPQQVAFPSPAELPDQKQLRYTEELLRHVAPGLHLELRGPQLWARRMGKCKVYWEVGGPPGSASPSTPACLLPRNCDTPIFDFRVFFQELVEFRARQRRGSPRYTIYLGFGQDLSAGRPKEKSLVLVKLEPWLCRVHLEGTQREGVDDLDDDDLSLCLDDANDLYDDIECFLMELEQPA
Strand,fitted relative affinity
TTAGGACTGGGTATCGGCTAGTGCTAG,-0.578 z-score
GACGGTTCCGTTTTCGGGACGTGCTAG,5.01 z-score
GACGAACTGGGTACTGGAGACGTGCTA,-0.535 z-score
TCTGTTTTTGCTTTCTTTTTGTGCTAG,7.32 z-score
TTAGTTATCAGTCTCGATTAGTGCTAG,0.857 z-score
TCAGGTCTCGGTATCGGTTAGTGCTAG,1.48 z-score
GACGGTATCGGTTTCTGGACGTGCTAG,2.45 z-score
GACGATCTCAGTCTCCAGACGTGCTAG,0.323 z-score
GACCATTTCAGTATCGAGACGTGCTAG,1.22 z-score
GACGGTATCGACTTTCGGGAGGTGCTA,1.98 z-score
ACAGCTCTGCGGTTCAGATAGTGCTAG,0.183 z-score
TTAGATTTTAGACTGGATTAGTGCTAG,-0.558 z-score
GACGGTTTCGGTTCCGGCACGTGCTAG,11.1 z-score
GACGATTTCAGTTCCGGGACGTGCTAG,2.09 z-score
GACGGTTTCGACACTGAGGACGTGCTA,2.72 z-score
TCAACTCAGCACTTTGGCACTGTGCTA,-0.326 z-score
TCAGGTCTTCACTTGGCACTGTGCTAG,0.514 z-score
TTAGGTCACGGACTGGGTTAGTGCTAG,-0.56 z-score
TTAGGACTGGGGAGTGGGTTAGTGCTA,-0.636 z-score

# Sample 2 — technique: RNA Bind-n-Seq; molecule type: RNA; medium: in vitro; tested at: 365 nM; relative to: no-protein control; reading: higher = stronger binding
# Target: RNA binding protein fox-1 homolog 2, RRM domain, GST-SBP tag (RBFOX2, Homo sapiens, UniProt O43251-10, residues 100-194)
# Setting: natural RNA segment, single round, ends assumed
# Target sequence (chain): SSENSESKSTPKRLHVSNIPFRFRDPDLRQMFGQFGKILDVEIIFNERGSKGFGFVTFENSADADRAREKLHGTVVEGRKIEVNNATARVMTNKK
Strand,RBNS enrichment (R)
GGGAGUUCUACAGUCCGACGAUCUGCUGUGAGUUGUUCCAGACCUUUCUGUGGCUUUUUGGUAAGGCUGCUUAGAAGCAUGAGAAGCAUGAGAAUGGUAAUGUGUGCUAAACCUAUGUUUAACCAAUCUUUGCUGGAAUUCUCGGGUGCCAA,4.73
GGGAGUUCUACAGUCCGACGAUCCCCUGCCUGCCCAUCUCAGAGCCAUAAGGUCAUCUUUGCUAGAGCUAUUUUUACCUAUGUAUUUAUCGUUCUUGAUCAUAAGCCGCUUAUUUAUAUCAUGUAUCUCUAAGUGGAAUUCUCGGGUGCCAA,0.373
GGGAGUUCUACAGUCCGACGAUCGGGCUGCCAUGGUCACAAGCACACUGAUGCUCCUUAAGAUUGUUUAUCUGGAGCCCACAUAGUGUGGAACAAAAAGUCACCUAGAAAGCAUCCUUGGUCAUCAUUGUCUCUGGAAUUCUCGGGUGCCAA,0.255
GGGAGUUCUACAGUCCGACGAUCAUCAGAGGUGCAGGCCACCAGUUAAAUGCCGUCUAUCAGGUUUUGUGCCUUAAGAGACUACAGAGUCAAAGCUCAUUUUUAAAGGAGUAGGACAAAGUUGUCACAGGUUUUGGAAUUCUCGGGUGCCAA,0.326
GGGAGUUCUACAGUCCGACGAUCUUUUCCUGGAUAAUUUGAUGGAAUAUUUUAAGUUUCAGUAAAUCAGAACAAUAAACAAACUCAGAUAAAAUGUGUUGAAAGUAAUUCAUUCUCCCAUAGAUAAAUGAAACUGGAAUUCUCGGGUGCCAA,0.431
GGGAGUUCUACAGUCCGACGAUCCAAAAGCAGCCUCUGGCCUUCCCUCCACCGCUUUGCUCCAUCUGGCUUACCACUCUCCAGGGCCUCCUGGGGAGCCUGUCCUGUGUUCACUUUGUUUCAGGCUGGUCUGUUGGAAUUCUCGGGUGCCAA,0.284
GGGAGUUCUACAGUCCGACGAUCUUCAUGGUUUCUAGGAAAAGCUGCAUUGGGGUGGGGAGACCCAGUUUGCCUCAUAGGCAGAGGAUUCUCCAGGAAGCAUGGAAAAUGGAAUGUUUCCAUGCUUUACAGUGUGGAAUUCUCGGGUGCCAA,0.998
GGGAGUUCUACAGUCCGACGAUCUAGUUAGAAGAAGAAUCCAGUUUCUGCCUGUGAACUUAUUUGACUUUAGAUUGUCUCAUCUUGUGACUUUAUAAUGCCUGUCCCCUCCACUGGUCAAUUCAGCAUAUGGAUGGAAUUCUCGGGUGCCAA,0.69

# Sample 3 — target: CCNF, cyclin fold, Cln2 fusion (human); technique: yeast growth competition, sequencing; medium: yeast; setting: strong parent motif; relative to: not given; reading: higher = stronger binding
# Starting sequence: PKN2 docking peptide (human); VSAVRKLDFSDTM
Variant,normalised enrichment score
T12Q,7.08
D8A,7.92
K6A,6.66
D8T,7.04
D8M,8.35
D8W,8.74
K6E,5.34
T12F,7.33
K6R,7.55
A3D,0.252
F9D,-0.0476
D11G,7.29
R5D,-0.338
F9Y,5.54
D11L,7.37
D11Q,7.09
L7S,-0.12
F9W,5.6
K6N,4.98
S2W,7.1
S2L,7.3
D8H,7.96
S2P,6.98
K6V,6.49
A3K,3.03

# Sample 4 — technique: universal PBM; molecule type: double-stranded DNA, one strand shown; medium: in vitro; tested at: not given; reading: higher = stronger binding
# Target: Sal-like protein 4, full length isoform B (SALL4, Homo sapiens, UniProt Q9UJQ4-2, residues 1-616)
# Setting: 8-mer, flanks averaged, mean of replicates
Strand,E-score
AGGGCTTG,-0.139
CTTCCAGA,-0.149
CCGCGGCG,-0.319
AGTCCTTA,0.133
CACTTAGG,-0.00526
AATCGAGG,-0.173
ATAACTAC,0.374
ATCCAATA,0.27
CAATCGCG,-0.125
GCTTACGA,0.0509
GGTGCACA,-0.171
ACGTCTGC,-0.196
AGTGGCTG,-0.227
AGTCAAAA,0.095
AAATCCCC,-0.186
CTATCAAA,0.105
GCAAATCA,0.109
ACGACATC,-0.191
CGTTCAAC,0.0656
CATTTTGA,0.199
ACTAAGCG,-0.235
GGGTCTAA,-0.0969
CACTTACA,0.271
AGTAGTTA,0.158
GTTTTAAA,0.195

# Repeated from above (sample 1):
Strand,fitted relative affinity
TCTGTTTTTGCTTTCTTTTTGTGCTAG,7.32 z-score
TTAGTTATCAGTCTCGATTAGTGCTAG,0.857 z-score
TCAGGTCTCGGTATCGGTTAGTGCTAG,1.48 z-score
GACGGTATCGGTTTCTGGACGTGCTAG,2.45 z-score
GACGATCTCAGTCTCCAGACGTGCTAG,0.323 z-score
